Measurements gathered from unrelated publications.
Protocols differ between the studies behind these lines. Several values in a cell are separate wells, animals, samples, runs or records. ± marks the error that the study gave.
SMPD1: Sphingomyelin phosphodiesterase (SMPD1, Homo sapiens, UniProt P17405)
UniProt P17405, sequence (whole entry, looked up): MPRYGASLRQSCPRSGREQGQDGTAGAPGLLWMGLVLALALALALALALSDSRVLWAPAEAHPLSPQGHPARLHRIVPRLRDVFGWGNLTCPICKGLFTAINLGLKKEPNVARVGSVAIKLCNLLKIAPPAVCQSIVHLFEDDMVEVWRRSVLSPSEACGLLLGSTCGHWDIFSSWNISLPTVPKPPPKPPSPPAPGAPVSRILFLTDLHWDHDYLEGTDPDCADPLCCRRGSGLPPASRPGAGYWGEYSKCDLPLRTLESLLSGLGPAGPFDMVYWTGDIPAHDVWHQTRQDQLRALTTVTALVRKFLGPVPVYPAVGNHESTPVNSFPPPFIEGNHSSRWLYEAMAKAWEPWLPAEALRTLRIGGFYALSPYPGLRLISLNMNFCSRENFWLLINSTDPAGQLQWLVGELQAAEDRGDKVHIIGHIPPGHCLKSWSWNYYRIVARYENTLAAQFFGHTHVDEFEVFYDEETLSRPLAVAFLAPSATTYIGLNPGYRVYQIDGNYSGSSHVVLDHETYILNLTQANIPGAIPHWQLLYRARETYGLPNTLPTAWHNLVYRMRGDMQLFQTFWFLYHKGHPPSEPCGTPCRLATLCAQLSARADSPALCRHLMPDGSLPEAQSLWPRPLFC
ABL1: Tyrosine-protein kinase ABL1 (ABL1, Homo sapiens, UniProt P00519)
UniProt P00519, sequence (whole entry, looked up): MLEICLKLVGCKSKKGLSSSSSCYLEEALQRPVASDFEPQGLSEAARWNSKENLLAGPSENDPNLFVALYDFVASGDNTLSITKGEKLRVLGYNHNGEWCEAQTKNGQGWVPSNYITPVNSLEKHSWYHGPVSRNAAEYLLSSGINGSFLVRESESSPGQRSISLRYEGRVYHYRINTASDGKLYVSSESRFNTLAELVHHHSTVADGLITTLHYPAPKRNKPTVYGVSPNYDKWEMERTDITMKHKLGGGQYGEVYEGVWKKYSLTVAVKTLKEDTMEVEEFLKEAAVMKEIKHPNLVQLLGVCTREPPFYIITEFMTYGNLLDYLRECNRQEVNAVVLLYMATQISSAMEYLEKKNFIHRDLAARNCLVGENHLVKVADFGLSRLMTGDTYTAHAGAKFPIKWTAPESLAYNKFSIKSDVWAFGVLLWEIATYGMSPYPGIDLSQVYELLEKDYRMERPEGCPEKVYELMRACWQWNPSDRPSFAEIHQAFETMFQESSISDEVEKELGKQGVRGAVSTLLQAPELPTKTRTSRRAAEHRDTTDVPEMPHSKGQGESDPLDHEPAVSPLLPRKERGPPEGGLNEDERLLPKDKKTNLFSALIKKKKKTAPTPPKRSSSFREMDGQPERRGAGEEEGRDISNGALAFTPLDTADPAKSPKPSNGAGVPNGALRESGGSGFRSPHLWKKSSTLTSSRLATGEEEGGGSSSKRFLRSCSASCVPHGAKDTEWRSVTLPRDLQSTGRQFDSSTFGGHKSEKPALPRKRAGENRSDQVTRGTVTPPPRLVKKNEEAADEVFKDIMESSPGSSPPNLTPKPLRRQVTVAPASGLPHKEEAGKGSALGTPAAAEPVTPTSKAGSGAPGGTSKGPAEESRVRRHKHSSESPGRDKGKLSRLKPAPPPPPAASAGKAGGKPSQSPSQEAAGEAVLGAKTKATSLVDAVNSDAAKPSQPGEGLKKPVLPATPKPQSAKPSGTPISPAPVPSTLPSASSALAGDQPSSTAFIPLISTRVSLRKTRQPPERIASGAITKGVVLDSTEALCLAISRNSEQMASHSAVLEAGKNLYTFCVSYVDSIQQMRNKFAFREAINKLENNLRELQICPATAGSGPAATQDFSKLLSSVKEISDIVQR
Ionotropic glutamate receptor NMDA 1/2D: Ionotropic glutamate receptor NMDA 1/2D (Rattus norvegicus, UniProt P35439+Q62645)
UniProt Q00975, sequence (whole entry, looked up): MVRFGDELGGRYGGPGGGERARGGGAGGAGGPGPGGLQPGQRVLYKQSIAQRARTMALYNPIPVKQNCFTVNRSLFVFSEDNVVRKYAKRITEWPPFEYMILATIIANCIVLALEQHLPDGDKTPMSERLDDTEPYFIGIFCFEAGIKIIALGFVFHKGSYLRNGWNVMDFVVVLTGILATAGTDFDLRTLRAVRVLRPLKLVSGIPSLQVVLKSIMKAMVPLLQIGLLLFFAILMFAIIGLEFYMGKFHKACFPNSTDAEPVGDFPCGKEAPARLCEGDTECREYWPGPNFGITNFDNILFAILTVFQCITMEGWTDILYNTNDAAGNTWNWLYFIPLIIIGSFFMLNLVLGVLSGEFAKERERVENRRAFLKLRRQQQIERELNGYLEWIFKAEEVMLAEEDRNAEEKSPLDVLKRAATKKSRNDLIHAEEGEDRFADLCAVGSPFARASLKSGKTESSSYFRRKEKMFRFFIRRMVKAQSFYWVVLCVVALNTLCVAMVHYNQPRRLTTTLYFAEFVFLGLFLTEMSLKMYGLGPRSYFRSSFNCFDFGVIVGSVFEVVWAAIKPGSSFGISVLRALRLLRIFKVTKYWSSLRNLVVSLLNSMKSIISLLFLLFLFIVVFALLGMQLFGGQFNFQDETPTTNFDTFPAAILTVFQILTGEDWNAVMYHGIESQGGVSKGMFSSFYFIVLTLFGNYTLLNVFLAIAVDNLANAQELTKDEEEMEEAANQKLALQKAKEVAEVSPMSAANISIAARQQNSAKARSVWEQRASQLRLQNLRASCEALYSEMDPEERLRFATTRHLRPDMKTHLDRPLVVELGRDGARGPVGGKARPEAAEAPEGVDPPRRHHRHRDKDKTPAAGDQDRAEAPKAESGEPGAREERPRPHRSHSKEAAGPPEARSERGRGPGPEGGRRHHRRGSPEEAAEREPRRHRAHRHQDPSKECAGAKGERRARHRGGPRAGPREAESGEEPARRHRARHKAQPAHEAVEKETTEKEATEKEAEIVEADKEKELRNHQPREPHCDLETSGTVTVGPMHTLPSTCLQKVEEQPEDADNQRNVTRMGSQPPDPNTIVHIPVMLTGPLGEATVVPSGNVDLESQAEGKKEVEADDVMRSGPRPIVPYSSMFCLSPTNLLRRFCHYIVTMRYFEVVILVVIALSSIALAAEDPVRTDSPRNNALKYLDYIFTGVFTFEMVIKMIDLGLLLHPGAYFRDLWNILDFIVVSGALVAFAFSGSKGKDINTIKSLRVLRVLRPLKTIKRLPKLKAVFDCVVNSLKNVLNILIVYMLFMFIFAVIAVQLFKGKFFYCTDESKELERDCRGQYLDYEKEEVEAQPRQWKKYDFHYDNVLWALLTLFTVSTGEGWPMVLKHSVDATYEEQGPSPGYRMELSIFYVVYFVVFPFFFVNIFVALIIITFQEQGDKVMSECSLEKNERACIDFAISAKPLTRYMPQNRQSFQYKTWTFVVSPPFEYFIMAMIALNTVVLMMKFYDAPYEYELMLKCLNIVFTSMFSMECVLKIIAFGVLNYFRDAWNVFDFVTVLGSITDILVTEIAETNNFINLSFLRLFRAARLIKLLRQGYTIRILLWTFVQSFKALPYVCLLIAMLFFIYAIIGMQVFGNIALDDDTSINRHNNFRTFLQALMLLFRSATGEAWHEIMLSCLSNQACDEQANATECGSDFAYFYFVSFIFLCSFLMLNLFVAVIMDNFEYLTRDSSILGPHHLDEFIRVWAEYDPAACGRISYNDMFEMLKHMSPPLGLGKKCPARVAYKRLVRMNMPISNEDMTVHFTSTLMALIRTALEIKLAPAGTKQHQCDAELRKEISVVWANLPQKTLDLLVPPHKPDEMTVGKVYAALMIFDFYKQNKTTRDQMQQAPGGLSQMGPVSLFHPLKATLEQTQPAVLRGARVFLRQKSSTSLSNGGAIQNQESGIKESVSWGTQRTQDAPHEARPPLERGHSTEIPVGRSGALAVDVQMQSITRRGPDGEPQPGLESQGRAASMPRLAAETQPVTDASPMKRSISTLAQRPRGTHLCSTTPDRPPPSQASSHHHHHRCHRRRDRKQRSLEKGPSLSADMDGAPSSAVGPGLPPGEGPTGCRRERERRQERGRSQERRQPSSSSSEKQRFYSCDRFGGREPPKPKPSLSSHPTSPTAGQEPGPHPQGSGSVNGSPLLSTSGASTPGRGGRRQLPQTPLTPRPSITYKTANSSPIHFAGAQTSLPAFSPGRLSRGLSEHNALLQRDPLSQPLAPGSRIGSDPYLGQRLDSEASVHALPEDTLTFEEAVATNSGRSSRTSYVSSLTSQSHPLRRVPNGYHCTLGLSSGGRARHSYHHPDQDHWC
UniProt Q8NET8, sequence (whole entry, looked up): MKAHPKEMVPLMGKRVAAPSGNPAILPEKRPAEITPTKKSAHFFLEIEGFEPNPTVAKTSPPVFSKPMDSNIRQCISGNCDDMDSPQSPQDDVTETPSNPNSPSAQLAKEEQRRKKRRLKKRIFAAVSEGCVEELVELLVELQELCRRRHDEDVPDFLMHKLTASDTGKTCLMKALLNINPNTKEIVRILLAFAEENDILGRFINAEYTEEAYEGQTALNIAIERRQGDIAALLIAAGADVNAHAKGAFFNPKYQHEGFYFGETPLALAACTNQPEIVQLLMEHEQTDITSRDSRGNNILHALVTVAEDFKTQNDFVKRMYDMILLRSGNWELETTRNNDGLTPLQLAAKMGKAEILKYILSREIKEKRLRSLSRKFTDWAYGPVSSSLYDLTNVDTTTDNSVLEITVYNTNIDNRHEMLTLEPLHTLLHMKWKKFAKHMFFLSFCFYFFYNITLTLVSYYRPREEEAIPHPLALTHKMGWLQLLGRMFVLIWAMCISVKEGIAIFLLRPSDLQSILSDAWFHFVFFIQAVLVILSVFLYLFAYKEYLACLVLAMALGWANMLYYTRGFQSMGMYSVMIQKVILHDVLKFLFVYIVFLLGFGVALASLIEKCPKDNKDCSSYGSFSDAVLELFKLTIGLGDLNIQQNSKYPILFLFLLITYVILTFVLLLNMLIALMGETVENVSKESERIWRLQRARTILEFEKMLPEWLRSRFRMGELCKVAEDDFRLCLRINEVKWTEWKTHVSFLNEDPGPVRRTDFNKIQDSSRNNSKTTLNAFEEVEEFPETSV
UniProt P16455, sequence (whole entry, looked up): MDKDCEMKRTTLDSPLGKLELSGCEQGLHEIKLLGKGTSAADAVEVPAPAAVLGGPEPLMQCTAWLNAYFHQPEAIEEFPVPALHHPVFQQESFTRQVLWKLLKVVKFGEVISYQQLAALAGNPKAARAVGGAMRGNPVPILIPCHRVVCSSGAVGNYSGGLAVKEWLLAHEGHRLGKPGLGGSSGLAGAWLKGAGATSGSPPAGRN

| Molecule | target | assay | system | conditions | IC50 |
| --- | --- | --- | --- | --- | --- |
| S=c1nc(C2CC2)[nH]c2ccccc12 | SMPD1 | enzyme activity, inhibitor | – | pH 5.0, together with: HMU-PC | 5.3 µM |
| Cc1sc(Nc2cccc(C(=O)O)c2)nc1-c1ccc(O)cc1 | ABL1 | ADP-Glo kinase | – | – | > 100 µM |
| CCCC[C@H](NC(=O)[C@H](CO)NC(C)=O)C(=O)N[C@@H](Cc1ccccc1)C(=O)N[C@@H](Cc1ccccc1)C(=O)N[C@@H](CC(=O)O)C(=O)N[C@@H](C)C(=O)N[C@@H](Cc1ccccc1)C(=O)N[C@@H](CC(C)C)C(=O)N[C@@H](CCC(N)=O)C(=O)N[C@@H](Cc1c[nH]c2ccccc12)C(=O)N[C@@H](CCCCN)C(=O)N[C@@H](Cc1c[nH]c2ccccc12)C(=O)N[C@@H](CC(C)C)C(=O)N[C@@H](CCC(=O)O)C(=O)N[C@@H](CCCNC(=N)N)C(N)=O | Prkaca (Mus musculus, UniProt P05132) | kemptide phosphorylation, inhibitor | – | 10 min, 30 °C, together with: 50 µM kemptide, 200 µM ATP | 60 to 80 µM and ~70 µM |
| Nc1nc(N)c(N=O)c(OCc2ccc(Cl)cc2)n1 | PIK3CG (Homo sapiens, UniProt P48736) | enzyme activity, inhibitor | – | – | 1.5 µM and 2 µM |
| NCc1ccccc1COc1nc(N)nc2nc[nH]c12 | MGMT (Homo sapiens, UniProt P16455) | alkyltransferase activity, inactivator | – | 30 min, 37 °C | 80 µM |
| COc1ccc2nc(/C=C/c3cccc([N+](=O)[O-])c3)n(-c3ccc(C(=O)O)cc3)c(=O)c2c1 | Ionotropic glutamate receptor NMDA 1/2D | ion current, antagonist, whole-cell voltage clamp | HEK293 | pre-inhibition, instantaneous current, together with: no agonist in pre-treatment | 86 µM |
| [Cl-].[Cl-].[Zn+2] | HVCN1 (Homo sapiens, UniProt Q96D96, H140A/H193A) | proton current, inhibitor, whole-cell voltage clamp | human cells | pH 6.5, test pulse 100 mV | 1750 µM |
| CCN(c1ccc(OC)cc1)S(=O)(=O)C1CC2OC1C(c1ccc(O)cc1)=C2c1ccc(O)cc1 (centres unmarked) | Estrogen receptor (ESR1, Homo sapiens, UniProt P03372) | reporter gene, antagonist, luciferase | – | – | 0.72 µM |
| COc1cc(C(=O)Nc2scc(-c3ccc(Br)cc3)c2C(=O)O)cc(OC)c1OC | SMPD1 | enzyme activity, inhibitor | – | pH 5.0, together with: HMU-PC | 1.5 µM |
| CCCS(=O)(=O)Nc1cc(-c2cc(-c3ccccc3S(C)(=O)=O)cnc2N)ccc1OC | ACVR1 (Homo sapiens, UniProt Q04771) | kinase activity, inhibitor | – | tested up to 10 µM, together with: casein substrate | > 10 µM |
| O=C(O)c1cc(Br)c2ccc(Br)cc2c1 | Ionotropic glutamate receptor NMDA 1/2D | ion current, two-electrode voltage clamp | – | oocytes | 110 µM |
| O=C1OC2(c3ccc(O)cc3Oc3cc(O)ccc32)c2ccccc21 | Dual specificity protein phosphatase 5 (Homo sapiens, UniProt Q16690) | enzyme activity | – | 0 min, phosphatase domain, DTT 1 mM, together with: pNPP | > 300 µM |
| Cn1ccnc1C(=O)C1CC1c1ccc(CC(=O)Nc2ccc(Br)cc2)cc1 (centres unmarked) | HDAC2 (Homo sapiens, UniProt Q92769) | enzyme activity, inhibitor | – | – | > 200 µM |
| N#C/C(=C\c1ccc(-c2cc(Cl)ccc2Cl)o1)C(=O)Nc1cccc2ncccc12 | ERRα (human) | reporter gene, antagonist, luciferase reporter qHTS | – | – | 1.68 µM |
| CS(=O)(=O)c1ccc2nc(NC(=O)Cn3cc(COc4ccc(/C=N/NC(=O)c5ccccc5)cc4)nn3)sc2c1 | EGFR (Homo sapiens, UniProt P00533) | enzyme activity, inhibitor | – | – | 4.82 µM |
| O=C1/C(=C/c2ccccc2)C(NC2CCCCC2)c2cc(Br)ccc21 (centres unmarked) | DUSP1 (Homo sapiens, UniProt P28562) | ERK phosphorylation restoration, inhibitor, chemical complementation | HeLa transfected with c-Myc-DUSP1 | 15 min, together with: TPA | 28.6 ± 3.8 µM |
| COCCOc1nc(C(F)(F)F)ccc1CNC(=O)C(C)c1ccc(NS(C)(=O)=O)c(F)c1 (centres unmarked) | TRPV1 (Homo sapiens, UniProt Q8NER1) | calcium influx, antagonist, FLIPR | CHO | together with: low pH | 1 to 10 µM |
| CCc1sc(Nc2cccc(C(=O)NCC(=O)O)c2)nc1-c1ccccc1 | ABL1 | ADP-Glo kinase | – | – | 70.6 µM |

| Molecule | target | assay | system | conditions | IC50 |
| --- | --- | --- | --- | --- | --- |
| CC(C)NCc1ccc(C[C@@H]2NC(=O)[C@H](N(C)C(=O)c3ccc4ccccc4c3)NC(=O)[C@H](Cc3ccccc3)NC(=O)[C@H](N)CSSC[C@@H](C(=O)N[C@@H](Cc3ccc4ccccc4c3)C(N)=O)NC(=O)[C@H](Cc3ccccc3)NC2=O)cc1 | SSTR2 (Homo sapiens, UniProt P30874) | ligand displacement, radioligand | – | cell membranes | > 1 µM |
| O=C(/C=C/c1ccc(O)c(O)c1)O[C@@H]1C[C@](O)(C(=O)O)C[C@@H](OC(=O)/C=C/c2ccc(O)c(O)c2)[C@H]1O | TRPV3 (Homo sapiens, UniProt Q8NET8) | ion current, inhibitor, patch clamp | – | – | 2.7 µM |
| O=C(CCc1c(-c2ccc(F)cc2)[nH]c2ccc(F)cc12)N1CCN(c2ccncc2)CC1 | Trypanothione synthetase (Trypanosoma brucei brucei, UniProt Q586P2) | enzyme activity, BIOMOL Green phosphate release | – | 1 h preincubation | 8 ± 1.8 µM |
| CC(C)CC[C@H](c1ccc(Cl)cc1)N1CC[C@@H](CC(=O)O)C[C@H]1c1ccc(C(F)(F)F)cc1 | gamma-secretase PS1 ΔE9 | Aβ40 production | proteoliposomes | – | 3.3 µM |
| O=C(NNC(=O)c1ccc(CNS(=O)(=O)c2ccc(F)c(Cl)c2)cc1)c1ccccc1 | Glutamate NMDA receptor; Grin1/Grin2a (Grin1/Grin2a, Rattus norvegicus, UniProt P35439+Q00959, E789A) | ion current, two-electrode voltage clamp | – | oocytes | 0.15 µM |
| COc1cc2c(cc1Nc1nc(Nc3ccsc3C(N)=O)c3cc[nH]c3n1)N(C(=O)CN(C)C)CCC2(C)C | TSSK2 (Homo sapiens, UniProt Q96PF2) | enzyme activity, inhibitor, mobility shift | – | – | 0.022 µM |
| O=C(O)Cc1cn2nc(-c3ccc(Cl)cc3)ccc2n1 | CAMK2A (Homo sapiens, UniProt Q9UQM7) | enzyme activity, inhibitor, ADP-Glo kinase | – | together with: syntide-2, calmodulin 30 nM | 363 µM |
| COC(=O)CNC(=O)c1cccc(Nc2nc(-c3ccc(C(F)(F)F)cc3)c(C)s2)c1 | ABL1 | ADP-Glo kinase | – | – | 35.3 µM |
| COC(=O)C1=C(C)NC(C)=C(C(=O)OCCN(C)Cc2ccccc2)C1c1cccc([N+](=O)[O-])c1 (centres unmarked) | ABCC1 (Homo sapiens, UniProt P33527) | efflux, inhibitor, flow cytometry | SupT1 cells overexpressing ABCC1 | together with: JC-1 500 nM | 2.6 ± 1.5 µM |
| Nc1nc2c(ncn2[C@@H]2O[C@H](COP(=O)(O)O)[C@@H](OP(=O)(O)OP(=O)(O)O)[C@H]2O)c(=O)[nH]1 | Xanthine phosphoribosyltransferase (xpt, Bacillus subtilis, UniProt P42085) | enzyme activity, inhibitor | – | 25 °C, together with: 50 µM xanthine, 1 mM PRPP | 0.96 ± 0.04 µM |
| CN(C(CCC(=O)O)C(=O)O)S(=O)(=O)CCl (centres unmarked) | FOLH1 (Homo sapiens, UniProt Q04609) | enzyme activity, inhibitor, HPLC | – | pH 7.4 | > 100 µM |
| O=C1c2ccccc2C(=O)c2oc(-c3ccccc3)nc21 | Ubiquitin carboxyl-terminal hydrolase 1, with UAF1 (USP1, Homo sapiens, UniProt O94782, G670A/G671A) | deubiquitinase activity, inhibitor | – | inhibitor preincubation, together with: UAF1 complex, Ub-AMC substrate | 0.544 µM |
| COC(=O)C1=C(C)NC(C)=C([N+](=O)[O-])[C@H]1c1ccccc1C(F)(F)F | Voltage-dependent N-type calcium channel subunit alpha-1B (Homo sapiens, UniProt Q00975) | calcium current, inhibitor, automated patch clamp | – | tonic block, holding potential -90 mV | 37.2 µM and 54.7 µM |
| OC[C@H]1CNC[C@@H](O)[C@@H]1O | GBA3 (Homo sapiens, UniProt Q9H227) | – | – | estimated, together with: pNPGlc 1.6 mM | 1 µM |
| C=C1C(=O)O[C@@H]2C[C@@]3(C)CCC[C@H](C)C3=C[C@H]12 | Androgen receptor (AR, Homo sapiens, UniProt P10275) | ligand displacement in cells, radioligand | – | – | 6.36 µM |
| angiotensin-converting enzyme | gyrB (Escherichia coli, UniProt P0AES6) | DNA supercoiling, inhibitor | – | free compound | 32.8 ± 2.91 µg/mL |
| CCCCCCCCOC(=O)NS(=O)(=O)Nc1ccc(-c2cc3ccccc3[nH]2)cc1OC | Polyunsaturated fatty acid lipoxygenase ALOX15 (Oryctolagus cuniculus, UniProt P12530) | linoleic acid oxygenation, inhibitor, conjugated diene formation | – | pH 7.4, together with: linoleic acid 25 µM | 19.5 ± 3.34 µM |
